Published values of several laboratories.
Each line is one published result; not all experiments were run side by side. Values joined by “and” are separate records of one study, mostly repeats; a detail may differ. ± marks the error that the study gave.
Target: Broad substrate specificity ATP-binding cassette transporter ABCG2 (ABCG2, Homo sapiens, UniProt Q9UNQ0)
Sequence (Q9UNQ0 1-655, as in one of the studies): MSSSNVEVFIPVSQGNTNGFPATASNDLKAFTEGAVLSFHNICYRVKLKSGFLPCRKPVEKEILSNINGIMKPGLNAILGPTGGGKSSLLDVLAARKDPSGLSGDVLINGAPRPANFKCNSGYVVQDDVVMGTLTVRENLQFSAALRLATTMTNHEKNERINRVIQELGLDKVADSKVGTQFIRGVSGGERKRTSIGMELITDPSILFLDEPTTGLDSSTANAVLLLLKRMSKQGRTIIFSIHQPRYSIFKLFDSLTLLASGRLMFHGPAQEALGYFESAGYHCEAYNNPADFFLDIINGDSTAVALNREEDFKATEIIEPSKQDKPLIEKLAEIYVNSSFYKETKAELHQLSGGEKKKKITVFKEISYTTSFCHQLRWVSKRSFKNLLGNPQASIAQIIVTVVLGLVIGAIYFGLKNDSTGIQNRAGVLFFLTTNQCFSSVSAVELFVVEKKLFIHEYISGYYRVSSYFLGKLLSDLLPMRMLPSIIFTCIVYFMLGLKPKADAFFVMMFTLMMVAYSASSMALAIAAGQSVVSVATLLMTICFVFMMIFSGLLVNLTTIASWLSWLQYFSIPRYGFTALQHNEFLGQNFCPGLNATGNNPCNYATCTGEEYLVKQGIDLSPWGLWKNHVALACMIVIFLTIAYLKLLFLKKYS

| Compound | test | system | setting | how to read | measurement | result |
| --- | --- | --- | --- | --- | --- | --- |
| C[C@]12CCCN1CC1=NNC(=O)c3cc(F)cc4[nH]c2c1c34 | substrate | membrane vesicles | 5 µM | relative to: ATP over AMP | uptake ratio | 2.08 |
| CS(=O)(=O)CCNCc1ccc(-c2ccc3ncnc(Nc4ccc(OCc5cccc(F)c5)c(Cl)c4)c3c2)o1 | bidirectional transwell permeability | MDCKII cells transfected with ABCG2 | 1 µM, 1 h, pH 7.4, added: Ko143 1 µM | – | Papp A-B | 1.64 ± 0.4 ×10⁻⁶ cm/s |
| CCc1cc(/C(C)=N/OCc2ccc(C3CCCCC3)c(C(F)(F)F)c2)ccc1CN1CC(C(=O)O)C1 | transport, inhibitor | MDCK-II transfected with ABCG2 | up to 24.7 µM, 40 min, added: PhIP 1 µM | – | maximal inhibition | -10.2% |
| Cc1cc(Nc2ncnc3ccc(NC4=NC(C)(C)CO4)cc23)ccc1Oc1ccn2ncnc2c1 | bidirectional transwell permeability | MDCKII cells transfected with ABCG2 | 1 µM, 1 h, pH 7.4, added: Ko143 1 µM | – | efflux ratio | 1.01 ± 0.16 |
| CN1C[C@@H]2C[C@H]1CN2c1cc2c(cc1F)c(=O)c(C(=O)O)cn2C1CC1 | substrate | MDCK-II transduced with human ABCG2 | 10 µM, 4 h, apical to basolateral | – | transport | 13.3 ± 3.01% |
| C/C(O)=C(\C#N)C(=O)Nc1ccc(C(F)(F)F)cc1 | – | Caco-2 | 1 µM, 2 h, pH 7.4, added: 2 µM Ko143 | – | Papp B to A | 12.8 ×10⁻⁶ cm/s |
| COc1ccc2c3c([nH]c2c1)[C@H](CC(C)C)N1C(=O)[C@H](CC(=O)NC(C)C)NC(=O)[C@@H]1C3 | inhibitor, refers to: protoporphyrin IX | A549 | 1 µM, 2 h, added: 1 mM ALA | – | inhibition | 68% and 93.2% and 72.5% and 82.9% |
| C/C(O)=C(\C#N)C(=O)Nc1ccc(C(F)(F)F)cc1 | substrate | MDCK-II cells expressing ABCG2 | 5 µM, added: Ko143 1 M | – | efflux ratio decrease | 96.5% |
| COc1ccc2c3c([nH]c2c1)[C@H](CC(C)C)N1C(=O)[C@H](CC(=O)O)NC(=O)[C@@H]1C3 | protoporphyrin IX accumulation | A549 | 1 µM, 2 h, added: ALA 1 mM | – | inhibition | 10.1% and 16.9% |
| CC(C)c1nc(N(C)S(C)(=O)=O)nc(-c2ccc(F)cc2)c1/C=C/[C@@H](O)C[C@@H](O)CC(=O)O | substrate | human EpiIntestinal microtissues | 5 µM, 2 h, added: Ko143 5 µM | – | Papp (A to B) | 3.5 ± 0.1 ×10⁻⁶ cm/s |
| CC(C)c1nc(N(C)S(C)(=O)=O)nc(-c2ccc(F)cc2)c1/C=C/[C@@H](O)C[C@@H](O)CC(=O)O | – | human | 10 mg, compound alone | – | Tmax | 4 h |
| CCOc1cc2ncc(C#N)c(Nc3ccc(OCc4ccccn4)c(Cl)c3)c2cc1NC(=O)/C=C/CN(C)C | bidirectional transwell permeability | MDCKII cells transfected with ABCG2 | 1 µM, 1 h, pH 7.4 | – | efflux ratio | 3 ± 2.53 |
| O=C(O)[C@H]1O[C@@H](Oc2ccc3oc(-c4ccccc4)cc(=O)c3c2)[C@H](O)[C@@H](O)[C@@H]1O | transport | membrane vesicles | – | – | Km | 23 µM |

Repeated from above:
| Compound | test | system | setting | how to read | measurement | result |
| --- | --- | --- | --- | --- | --- | --- |
| O=C(O)[C@H]1O[C@@H](Oc2ccc3oc(-c4ccccc4)cc(=O)c3c2)[C@H](O)[C@@H](O)[C@@H]1O | transport | membrane vesicles | – | – | Km | 23 µM |
